Measured values pooled from the literature.
Numbered parts are unrelated; each lists some results of a single study. Changes are numbered by the printed parent chain.

Sample 1
Target: Centromere-binding protein 1, full length, N-terminal tag (CBF1, Saccharomyces cerevisiae, UniProt P17106, residues 1-351)
UniProt P17106, sequence (whole entry, looked up): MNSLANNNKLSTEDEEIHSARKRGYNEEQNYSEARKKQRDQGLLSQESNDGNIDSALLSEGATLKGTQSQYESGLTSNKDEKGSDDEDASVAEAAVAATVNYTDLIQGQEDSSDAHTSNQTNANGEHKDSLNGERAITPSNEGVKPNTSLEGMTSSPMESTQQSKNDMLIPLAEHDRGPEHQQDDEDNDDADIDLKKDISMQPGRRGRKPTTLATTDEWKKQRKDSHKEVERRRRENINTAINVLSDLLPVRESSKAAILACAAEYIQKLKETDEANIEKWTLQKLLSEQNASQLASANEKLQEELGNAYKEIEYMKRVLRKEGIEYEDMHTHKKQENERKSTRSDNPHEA
Technique: protein-binding microarray
Form: double-stranded DNA, one strand shown
Matrix: in vitro
Concentration: 0.8 µM
Notes: whole 60-bp probe, no competitor
Direction: higher = stronger binding
All sequences stand within: … GTCTTGATTCGCTTGACGCTGCTG
Strand	fluorescence intensity [a.u.]
GAAAAATCGTGCAAGAACGTGAGGATCTGTATATAG	589
CTATTCAAAAATATAAACGTGGCTTATCTCAGATTC	549
CTAGTCTAAAGAACGTGCATCAGAGAAGAATGATTC	697
GAAGAGATTTCTCATCATCACCTACATATTCTCTAG	542
GAAGCACCCCGTAGTCACGTTCGCCTTCGCAGCTAG	1580
GAAATGCCTTCGGTTCACATGGTAAACTCGAGCTAG	661
TGTACGAAGCTATACGTGATGACTATAGTAGTTAGG	534
TGTACGAAGCTATCACGTGTGAATATAGTAGTTAGG	7560
TGTACGAAGCTATATCAGGTGACTATAGTAGTTAGG	4280
GAATAAAAGCGTTTTATGGTGATGACTAAGAAATAG	703

Sample 2
Target: Prothrombin, mature alpha-thrombin (F2, Homo sapiens, UniProt P00734)
Technique: aptamer microarray, sandwich
Form: DNA with 2'F-ANA
Matrix: in vitro
Concentration: 200 nM
Notes: whole 15-mer aptamer, many near background
With: Cy3 exosite-II aptamer, 400 nM
Direction: higher = stronger binding
Strand: GGTTGGTGTGGTTGG
Modification	mean fluorescence intensity [a.u.]
2'F-ANA at 1 2 3 8 9 12	516
2'F-ANA at 1 2 3 9 13 14 15	105
2'F-ANA at 1 5 7 8 11 12 13 14	46.6
2'F-ANA at 1 2 3 5 7 8 11 12 15	95.8
2'F-ANA at 5 6 7 11 13 14	46.6
2'F-ANA at 4 5 6 9 10 13 15	85.3
2'F-ANA at 2 5 7 8 10 12 15	51.3

Sample 3
Target: CCNB3, cyclin fold, Cln2 fusion (human)
Technique: yeast growth competition, sequencing
Matrix: yeast
Notes: weak parent motif
Baseline: not given
Direction: higher = stronger binding
Parent: CDKN1A docking peptide (human); SKACRRLFGPVDS; partner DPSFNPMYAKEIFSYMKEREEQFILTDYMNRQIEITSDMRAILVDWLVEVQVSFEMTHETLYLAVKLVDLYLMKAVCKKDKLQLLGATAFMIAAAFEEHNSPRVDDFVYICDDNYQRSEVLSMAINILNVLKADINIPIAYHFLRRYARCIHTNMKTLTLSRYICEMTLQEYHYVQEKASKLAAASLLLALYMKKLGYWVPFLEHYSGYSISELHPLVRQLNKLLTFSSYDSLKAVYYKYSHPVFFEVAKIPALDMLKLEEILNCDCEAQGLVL
Substitution	normalised enrichment score
V11C	0.493
R5D	-0.238
G9C	0.446
A3G	0.157
G9D	0.257

Further values, each from its own experiment
Substance	target	assay	system	setting	scale	endpoint	result
PhoQ, residues 284 288 289 292 302 303 SSCLAV	PhoP, residues 12 14 15 18 19 STHWV (Escherichia coli, UniProt P23836)	Sort-seq, item: YFP reporter	E. coli	PhoQ-PhoP variant library, with: 10 µM Mg2+	baseline: high Mg2+ state, higher = stronger signaling	fold induction	18.3

Repeated from above (sample 3):
Substitution	normalised enrichment score
G9C	0.446
V11C	0.493
